Measurements gathered from unrelated publications.
Each numbered part is a random draw from the data of one study; scales do not carry over between parts. Positions count from the first letter of the parent shown.
UniProt P35372, sequence (whole entry, looked up): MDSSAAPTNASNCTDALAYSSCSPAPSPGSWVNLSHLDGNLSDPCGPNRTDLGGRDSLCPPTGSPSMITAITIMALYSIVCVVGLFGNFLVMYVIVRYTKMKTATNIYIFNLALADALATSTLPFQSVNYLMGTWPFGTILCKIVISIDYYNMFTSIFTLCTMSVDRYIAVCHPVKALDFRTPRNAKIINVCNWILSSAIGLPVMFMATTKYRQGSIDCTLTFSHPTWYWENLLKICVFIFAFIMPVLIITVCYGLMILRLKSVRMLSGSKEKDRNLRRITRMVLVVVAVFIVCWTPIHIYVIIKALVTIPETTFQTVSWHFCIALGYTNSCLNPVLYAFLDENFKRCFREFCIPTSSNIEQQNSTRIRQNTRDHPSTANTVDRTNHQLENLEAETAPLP
UniProt P28335, sequence (whole entry, looked up): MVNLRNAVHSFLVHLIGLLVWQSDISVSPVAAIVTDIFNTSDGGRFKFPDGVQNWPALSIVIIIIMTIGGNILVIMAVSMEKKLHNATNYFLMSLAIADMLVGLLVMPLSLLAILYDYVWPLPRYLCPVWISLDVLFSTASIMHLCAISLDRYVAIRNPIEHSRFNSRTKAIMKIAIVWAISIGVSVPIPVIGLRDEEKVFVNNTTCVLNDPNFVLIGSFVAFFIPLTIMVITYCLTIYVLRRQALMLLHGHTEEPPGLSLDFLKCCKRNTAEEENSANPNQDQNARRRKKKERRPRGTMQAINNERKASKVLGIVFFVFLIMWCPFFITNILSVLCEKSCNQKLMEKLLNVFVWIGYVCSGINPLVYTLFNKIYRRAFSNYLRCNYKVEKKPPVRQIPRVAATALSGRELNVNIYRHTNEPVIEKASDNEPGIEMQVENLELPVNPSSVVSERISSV

Study 1 — target: CCNE2, cyclin fold, Cln2 fusion (human); method: yeast growth competition, sequencing; matrix: yeast; notes: strong parent motif; reference: not given; direction: higher = stronger binding
Starting sequence: viral docking peptide; YKVKRRLVFGADD; partner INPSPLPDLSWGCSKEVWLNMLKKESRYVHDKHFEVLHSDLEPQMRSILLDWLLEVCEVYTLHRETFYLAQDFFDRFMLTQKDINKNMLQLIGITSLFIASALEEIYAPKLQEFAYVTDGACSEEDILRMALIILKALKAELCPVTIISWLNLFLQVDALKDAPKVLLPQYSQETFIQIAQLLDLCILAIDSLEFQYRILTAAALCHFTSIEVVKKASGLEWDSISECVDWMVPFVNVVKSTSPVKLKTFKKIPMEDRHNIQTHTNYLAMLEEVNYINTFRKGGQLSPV
Variant	normalised enrichment score
K2F	4.4
L7S	0.787
G10E	5.63
A11H	5.63
R5I	0.632
V8W	4.35
V8D	6.33
K4R	5.8
R5V	0.802
F9R	0.362
F9H	0.683
V3Q	0.735
D12Y	5.15
L7P	0.195

Study 2 — method: competition protein-binding microarray; form: double-stranded DNA, one strand shown; matrix: in vitro; concentration: 2 µM; together with: Cbf1 competitor, 0.05 µM; direction: higher = stronger binding; constant ends, left off below: … GTCTTGATTCGCTTGACGCTGCTG
Target: Phosphate system positive regulatory protein PHO4, full length, GST-tagged (PHO4, Saccharomyces cerevisiae, UniProt P07270, residues 1-312)
Notes: whole 60-bp probe, lowest competitor level
Target sequence (chain): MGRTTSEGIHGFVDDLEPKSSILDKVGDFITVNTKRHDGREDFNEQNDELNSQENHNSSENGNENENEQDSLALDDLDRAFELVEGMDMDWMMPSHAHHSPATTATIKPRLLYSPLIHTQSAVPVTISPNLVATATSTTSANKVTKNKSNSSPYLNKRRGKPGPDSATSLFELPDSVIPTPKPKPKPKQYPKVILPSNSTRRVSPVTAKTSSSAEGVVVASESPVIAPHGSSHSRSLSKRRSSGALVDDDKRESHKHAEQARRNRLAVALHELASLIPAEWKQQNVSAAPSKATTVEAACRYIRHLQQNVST
Sequence	fluorescence intensity [a.u.]
TGCGCAACAACTTTTCACGTGGCATTATGTCTAGAA	14600
CGGGGTTAAGTTTGAAGTGTGGGTGGCTTGCAGCAG	5330
CACAGACAGGATAGCTGCGTGGGACAATATTGTTGA	8290
CTAACGAAGGTTTGTCACCAAACTTACAAGCCAAGT	3340
CGTCCTAGTGATTGTCATGTGGGTGCCATGAGGAAG	9870
CCGTCTACAACTCGGCACGCAAGTAGTCCGCCTAGC	6120
CTTTCCCGATCTTGCCGGGTGGGTGTAGCACATTTG	5480
CTTTCCCGATCTTTTCACGTGAGTTTAGCACATTTG	10400

Study 3 — target: ATF1, bZIP domain (human); method: DHFR protein complementation; matrix: yeast; reference: wild-type JUN-FOS pair; direction: higher = stronger binding
Notes: single substitutions, most at no-binding floor
Starting sequence: JUN, bZIP domain (human); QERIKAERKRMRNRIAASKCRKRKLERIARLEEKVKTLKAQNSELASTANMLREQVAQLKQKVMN; partner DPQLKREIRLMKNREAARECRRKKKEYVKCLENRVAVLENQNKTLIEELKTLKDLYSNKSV
Variant	binding fitness
K39S	-1.46 natural log
A57T	-1.55 natural log
A46W	-1.48 natural log
Q41I	-1.35 natural log
V56K	-1.51 natural log
T48R	-1.48 natural log
I28V	-1.36 natural log
N42V	-1.49 natural log

Single results of other studies — concentration: 10 µM
Compound	target	assay	inhibition [%]
COc1cc(-c2cn(C3CCc4ccccc4N(CC(F)(F)F)C3=O)nn2)ccc1-n1ccc(C)n1 (centres unmarked)	HTR2C (Homo sapiens, UniProt P28335)	binding, radioligand binding	16.9
N#CN1CC[C@H](C(=O)Nc2nc3c(s2)CN(C(=O)CN=[N+]=[N-])CC3)C1	OPRM1 (Homo sapiens, UniProt P35372)	ligand displacement	12.6
